Published values collected from several papers.
Values joined by “and” are separate records of one study, mostly repeats; a detail may differ. ± gives the spread as reported. Values after ≈ are worked out from the molar mass of the structure shown.

Cc1nc2[nH]c(=O)n(O)c(=O)c2s1 — growth inhibition (Amaranthus retroflexus; 1500 g/ha, 21 days, pre-emergence, glasshouse pot): 30%
CN(C)[C@@H]1C(O)=C(C(N)=O)C(=O)[C@@]2(O)C(O)=C3C(=O)c4c(O)cccc4[C@@](C)(O)[C@H]3C[C@@H]12 — cell width (Bacillus subtilis; bacterial cytological profiling; ATCC 6633; concentration not given): 0.89 µm and 0.92 µm
CC(C)[C@@H](N)C(=O)OC[C@H]1O[C@@](C#N)(c2ccc3c(N)ncnn23)[C@H](O)[C@@H]1O — EC50 (human respiratory syncytial virus; viral replication, viral protein ELISA; HEp-2, A2; 5 days): 1440 ± 360 nM
Cc1ccc(NC(=O)N2Cc3[nH]cnc3C[C@H]2c2nc(-c3ccc4c(c3)OCO4)no2)cc1 — median lifespan (Caenorhabditis elegans; N2; 6.25 µM): 21 days
CC(=O)NC[C@H]1CN(c2ccc(N3CCOCC3)c(F)c2)C(=O)O1 — MIC50 (Streptococcus pneumoniae; penicillin-resistant, 10 isolates; serum 25%): 1 µg/mL (≈ 2.96 µM)
COCC(=O)N1CCC[C@H](C(=O)NCc2nc(-c3ccc(C#N)cc3)cs2)C1 — EC50 (Plasmodium falciparum; SYBR Green; 3D7; 72 h): 31 ± 3.5 nM
NC(=O)c1ncn([C@@H]2O[C@H](CO)[C@@H](O)[C@H]2O)n1 — EC50 (Punta Toro virus; Vero): 50000 nM
O=C(O)c1cn(C2CC2)c2cc(N3CCNCC3)c(F)cc2c1=O — cell length (Bacillus subtilis; bacterial cytological profiling; ATCC 6633; concentration not given): 6.15 µm and 5.87 µm and 6.17 µm
Cc1cc(OC(C)C)ccc1C(=O)C(C)(C)NC(=O)c1sccc1C — inhibition (Botrytis cinerea; appressorium formation; B05.10; 0.3 µg/mL): 84.5 ± 13.9%
[N-]=[N+]=N[C@]1(CO)O[C@@H](n2ccc(N)nc2=O)[C@@H](F)[C@@H]1O — EC50 (human respiratory syncytial virus; viral replication; Huh7.5, A2 GFP reporter): > 50000 nM
CCn1c(=O)c(-c2cc[nH]n2)cc2c(C)nc(N)nc21 — hepatocyte oedema score (enterovirus A71; suckling mouse, EV71-infected, liver; 0.25 mg/kg; direction not given): 1
CC1(C)S[C@@H]2[C@H](NC(=O)[C@H](N)c3ccccc3)C(=O)N2[C@H]1C(=O)O — DNA area (Bacillus subtilis; bacterial cytological profiling; ATCC 6633; concentration not given): 1.5 µm² and 1.44 µm² and 1.29 µm²
CC1(C)S[C@@H]2[C@H](NC(=O)[C@H](N)c3ccccc3)C(=O)N2[C@H]1C(=O)O — MIC (Pseudomonas aeruginosa; clinical isolate RKI-No_613/16): > 16 µg/mL
COC(=O)[C@H](Cc1c[nH]c2ccccc12)NCc1cc2ccccc2nc1SC — growth (Pseudomonas aeruginosa; 32 µg/mL, with: pentamidine 50 µM; baseline: control): 80.4%
CC(C)C(=O)OC[C@H]1O[C@@](C#N)(c2ccc3c(N)ncnn23)[C@H](O)[C@@H]1O — EC50 (human respiratory syncytial virus; viral replication, viral protein ELISA; HEp-2, A2; 5 days): 550 ± 48 nM
[H]/N=C(\N/C(=N/[H])NCCCCCCNC(=N)NC(=N)Nc1ccc(Cl)cc1)Nc1ccc(Cl)cc1 — initial rate of pH drop (Streptococcus sobrinus; glycolytic acid production; MIC, first 15 min, 0.25 h, with: glucose 1%): 0.018 pH unit/min
N=C(N)c1ccc(OCc2cccc(COc3ccc(C(=N)N)cc3)c2)cc1 — MIC of compound in combination (Escherichia coli; checkerboard; mcr-3 polymyxin-resistant; concentration not given, with: rifampicin): 50 µg/mL
O=C1O[C@H]2[C@@H]3OC(=O)c4cc(O)c(O)c(O)c4-c4c(O)c(O)c5oc(=O)c6c(c(O)c(O)c7oc(=O)c4c5c76)-c4c(cc(O)c(O)c4O)C(=O)OC[C@H]3OC(O)[C@@H]2OC(=O)c2cc(O)c(O)c(O)c2-c2c1cc(O)c(O)c2O (mixture of isomers) — inhibition zone diameter (Streptococcus sobrinus; 500 µg/disc): 19 ± 1.1 mm
CC(=O)Nc1cc(Oc2ccc3c(c2)CCN3C(=O)Nc2ccc(CN3CCN(C)CC3)c(C(F)(F)F)c2)ncn1 — EC50 (hepatitis C virus; viral replication; Huh-Luc/neo-ET replicon cells): < 1500 nM
O=c1c(-c2nc3ccccc3s2)cc2c(n1NS(=O)(=O)c1ccc(Cl)cc1)CCCC2 — reduction (Human mastadenovirus B; viral replication, plaque reduction; HEp-2 cells, type 7; non-toxic concentration): 0%
C#CCOC(=O)ON=C1C=CC(=C(C#N)c2ccccc2)C=C1 — MFC (Pichia norvegensis; broth dilution; ATCC 96139; 48 h, 37 °C): 16 µg/mL (≈ 52.6 µM)
CC(=Nc1ccc(N=Cc2cnccn2)cc1)N(C)C — anthelmintic rate (Necator americanus; hamster (Mesocricetus auratus), infected; oral, 50 mg/kg single dose, 2 h): 45 ± 9.5%
Oc1cc(O)c2c(c1)O[C@H](c1cc(O)c(O)c(O)c1)[C@@H](O)C2 — MBC/MIC ratio (Streptococcus sobrinus; broth microdilution): 4
N=C(N)c1ccc(OCc2ccc(-c3ccccc3)cc2COc2ccc(C(=N)N)cc2)cc1 — FICI (Escherichia coli; checkerboard; mcr-3 polymyxin-resistant; unit not given, with: rifampicin; lower = stronger synergy): ≤ 0.031
CC[C@@H](C)[C@@H](N)C(=O)OC[C@H]1O[C@@](C#N)(c2ccc3c(N)ncnn23)[C@H](O)[C@@H]1O — EC50 (human respiratory syncytial virus; viral replication, viral protein ELISA; HEp-2, A2; 5 days): 1690 ± 216 nM
CO[C@H]1/C=C/O[C@@]2(C)Oc3c(C)c(O)c4c(O)c(c(/C=N/N5CCN(C)CC5)c(O)c4c3C2=O)NC(=O)/C(C)=C\C=C\[C@H](C)[C@H](O)[C@@H](C)[C@@H](O)[C@@H](C)[C@H](OC(C)=O)[C@@H]1C — cell perimeter (Bacillus subtilis; bacterial cytological profiling; ATCC 6633; concentration not given): 4.95 µm and 5.03 µm and 4.91 µm
CC(C)n1ncc2c(C(=O)NCC3(C)CNC3)cc(C3CC3)nc21 — plaque area (Enterovirus D68; viral replication; RD, US/MO/14-18947; 0.01 µM; baseline: untreated): 102% and 114%
N[C@@H](Cc1ccc(O)cc1)C(=O)O — EC50 (Bacillus subtilis; chemotaxis pathway, FRET; 168): 29700 nM
CCCCCCCCCC(=O)N[C@@H](Cc1c[nH]c2ccccc12)C(=O)N[C@H](CC(N)=O)C(=O)N[C@@H](CC(=O)O)C(=O)N[C@@H]1C(=O)NCC(=O)N[C@@H](CCCN)C(=O)N[C@@H](CC(=O)O)C(=O)N[C@H](C)C(=O)N[C@@H](CC(=O)O)C(=O)NCC(=O)N[C@H](CO)C(=O)N[C@@H]([C@H](C)CC(=O)O)C(=O)N[C@@H](CC(=O)c2ccccc2N)C(=O)O[C@@H]1C — MIC (Staphylococcus aureus; SH1000; with: phosphatidylglycerol, molar ratio 2): 8 µg/mL
CO[C@H]1/C=C/O[C@@]2(C)Oc3c(C)c(O)c4c(c3C2=O)C2=NC3(CCN(CC(C)C)CC3)NC2=C(NC(=O)/C(C)=C\C=C\[C@H](C)[C@H](O)[C@@H](C)[C@@H](O)[C@@H](C)[C@H](OC(C)=O)[C@@H]1C)C4=O — IC50 (Mycobacteroides abscessus; bacterial growth; subsp. abscessus M9 clinical isolate): 1400 nM
O=c1[nH]c2ncsc2c(=O)n1O — growth inhibition (Amaranthus retroflexus; 1500 g/ha, 21 days, pre-emergence, glasshouse pot): 93.4%
O=c1oc2c(O)c(O)cc3c(=O)oc4c(O)c(O)cc1c4c23 — MBC/MIC ratio (Streptococcus sobrinus; broth microdilution): 2
Cn1c(Cn2ccc(C(F)(F)F)c(Oc3cc(Cl)cc(C#N)c3)c2=O)n[nH]c1=O — EC50 (HIV-1 NL4-3; viral replication, luciferase reporter; TZM-bl; 48 h): 3 ± 0.2 nM
O=C(NCCc1c[nH]c2ccccc12)C(=O)c1c[nH]c2ccc(F)cc12 — killing (Pseudomonas putida, Escherichia coli; bactericidal activity; 3 x MIC, 2 h): 80 to 95%
O=C1OC[C@H]2OC(O)[C@H](O)[C@@H](O)[C@@H]2OC(=O)c2cc(O)c(O)c(O)c2-c2c(O)c(O)c3oc(=O)c4c(c(O)c(O)c5oc(=O)c2c3c54)-c2c1cc(O)c(O)c2O (mixture of isomers) — inhibition zone diameter (Streptococcus sobrinus; 500 µg/disc): 15.4 ± 1.4 mm
COC[C@H]1O[C@@H]2O[C@H]3[C@H](OC)[C@@H](OC)[C@@H](O[C@H]4[C@H](OC)[C@@H](OC)[C@@H](O[C@H]5[C@H](OC)[C@@H](OC)[C@@H](O[C@H]6[C@H](OC)[C@@H](OC)[C@@H](O[C@H]7[C@H](OC)[C@@H](OC)[C@@H](O[C@H]8[C@H](OC)[C@@H](OC)[C@@H](O[C@H]1[C@H](OC)[C@H]2OC)O[C@@H]8COC)O[C@@H]7COC)O[C@@H]6COC)O[C@@H]5COC)O[C@@H]4COC)O[C@@H]3COC — inhibition (Escherichia coli; LuxR reporter, antagonist; DH5α sensor strain; 1 µM, with: OHHL 200 nM): -2 ± 3%

Some of these lines once more:
CO[C@H]1/C=C/O[C@@]2(C)Oc3c(C)c(O)c4c(O)c(c(/C=N/N5CCN(C)CC5)c(O)c4c3C2=O)NC(=O)/C(C)=C\C=C\[C@H](C)[C@H](O)[C@@H](C)[C@@H](O)[C@@H](C)[C@H](OC(C)=O)[C@@H]1C — cell perimeter (Bacillus subtilis; bacterial cytological profiling; ATCC 6633; concentration not given): 4.95 µm and 5.03 µm and 4.91 µm
CC(C)n1ncc2c(C(=O)NCC3(C)CNC3)cc(C3CC3)nc21 — plaque area (Enterovirus D68; viral replication; RD, US/MO/14-18947; 0.01 µM; baseline: untreated): 102% and 114%
N[C@@H](Cc1ccc(O)cc1)C(=O)O — EC50 (Bacillus subtilis; chemotaxis pathway, FRET; 168): 29700 nM
CCCCCCCCCC(=O)N[C@@H](Cc1c[nH]c2ccccc12)C(=O)N[C@H](CC(N)=O)C(=O)N[C@@H](CC(=O)O)C(=O)N[C@@H]1C(=O)NCC(=O)N[C@@H](CCCN)C(=O)N[C@@H](CC(=O)O)C(=O)N[C@H](C)C(=O)N[C@@H](CC(=O)O)C(=O)NCC(=O)N[C@H](CO)C(=O)N[C@@H]([C@H](C)CC(=O)O)C(=O)N[C@@H](CC(=O)c2ccccc2N)C(=O)O[C@@H]1C — MIC (Staphylococcus aureus; SH1000; with: phosphatidylglycerol, molar ratio 2): 8 µg/mL
